{"data": "Measurements collected from several papers", "note": "Each line is one published result; not all experiments were run side by side. ± gives the spread as reported. Where no end group is shown, it is not given here.", "chain of UniProt O60656 (whole entry, looked up)": "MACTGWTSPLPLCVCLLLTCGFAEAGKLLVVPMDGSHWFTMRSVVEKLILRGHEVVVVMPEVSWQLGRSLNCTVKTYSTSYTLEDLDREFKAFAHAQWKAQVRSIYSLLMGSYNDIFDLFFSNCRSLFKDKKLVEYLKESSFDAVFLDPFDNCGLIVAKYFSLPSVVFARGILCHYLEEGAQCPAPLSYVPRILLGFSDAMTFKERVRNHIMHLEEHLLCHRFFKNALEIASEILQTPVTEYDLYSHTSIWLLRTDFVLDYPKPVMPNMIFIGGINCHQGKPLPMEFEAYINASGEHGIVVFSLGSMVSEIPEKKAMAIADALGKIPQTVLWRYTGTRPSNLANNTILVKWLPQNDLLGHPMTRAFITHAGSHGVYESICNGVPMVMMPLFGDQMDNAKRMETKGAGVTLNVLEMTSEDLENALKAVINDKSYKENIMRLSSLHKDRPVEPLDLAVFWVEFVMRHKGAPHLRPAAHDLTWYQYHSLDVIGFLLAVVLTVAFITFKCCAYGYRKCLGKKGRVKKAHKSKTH"}
{"Substance": "O=C1c2c(O)cc(O)cc2O[C@H](c2cc(O)c(O)c(O)c2)[C@H]1O", "tested on": "GABAA receptor, rat", "test": "mIPSC enhancement, positive allosteric modulator, whole-cell patch clamp", "test system": "hippocampal neurons, cultured", "conditions": "added: ethanol 60 mM for 30 min, recorded 24 h after exposure", "measurement": "EC50", "value": "~150 nM"}
{"Substance": "COc1cccc2c1C(=O)c1c(O)c3c(c(O)c1C2=O)C[C@@](O)(C(=O)CO)C[C@@H]3O[C@H]1C[C@H](N)[C@H](O)[C@H](C)O1", "tested on": "A549", "test": "qPCR, refers to: TP53", "conditions": "concentration not given, 24 h", "scale": "reference: untreated", "measurement": "mRNA level", "value": "8.3 ± 0.02 fold"}
{"Substance": "TDVAHVFLRF-NH2 (C-amide)", "tested on": "Drosophila melanogaster", "test": "heart rate", "test system": "adult heart", "conditions": "40 nL injected, 1 µM, 10 min", "scale": "reference: DMS", "measurement": "inhibition", "value": "114%"}
{"Substance": "NNC(=O)Cn1cc(COc2ccccc2-c2nc(-c3ccccc3)no2)nn1", "tested on": "A549", "test": "qPCR, refers to: TP53", "conditions": "concentration not given, 24 h", "scale": "reference: untreated", "measurement": "mRNA level", "value": "5.5 ± 0.003 fold"}
{"Substance": "CS(=O)(=O)c1ccc(-c2cnc(N)c(-c3ccc(C(F)(F)F)nc3)c2)cc1", "tested on": "Plasmodium cynomolgi", "test": "schizont (large EEF) growth", "test system": "primary rhesus hepatocytes", "conditions": "day 3, compound added at 72 h", "measurement": "IC50", "value": "310 nM"}
{"Substance": "c1ccc(Cc2c(-c3ccccc3)n(Cc3ccccc3)c3ccccc23)cc1", "tested on": "RAW264.7", "test": "NO release, inhibitor, Griess", "conditions": "50 µM, 20 h, LPS-stimulated", "measurement": "inhibition", "value": "0%"}
{"Substance": "UGT1A9 (Homo sapiens, UniProt O60656)", "tested on": "COc1ccc2c(=O)c(O)c(-c3ccccc3)oc2c1", "test": "steady-state kinetics", "conditions": "pH 7.4, 37 °C", "measurement": "Vmax", "value": "0.01 µmol/min/mg"}
{"Substance": "O=C(Cn1cc(COc2ccccc2-c2nc(Cc3ccccc3)no2)nn1)NNC(=S)Nc1ccccc1", "tested on": "Caco-2", "test": "qPCR, refers to: EGFR", "conditions": "IC50, 24 h", "scale": "reference: untreated cancer cells", "measurement": "mRNA level", "value": "0.423 ± 0.005 fold"}
{"Substance": "Clc1ccc2cc(-c3ccccc3)[nH]c2c1", "tested on": "RAW264.7", "test": "NO release, inhibitor, Griess", "conditions": "50 µM, 20 h, LPS-stimulated", "measurement": "inhibition", "value": "36.3%"}
{"Substance": "Cc1cc(C(C#N)c2ccc(Cl)cc2)c(Cl)cc1NC(=O)c1cc(I)cc(I)c1O (stereo not drawn)", "tested on": "Haemonchus contortus", "test system": "multidrug-resistant", "conditions": "oral, 10 mg/kg, day 2 post-treatment, added: moxidectin 0.2 mg/kg", "measurement": "faecal egg count reduction", "value": "88%"}
{"Substance": "COc1ccc2cc(-c3cc4ccccc4[nH]3)ccc2c1", "tested on": "RAW264.7", "test": "NO release, inhibitor, Griess", "conditions": "50 µM, 20 h, LPS-stimulated", "measurement": "inhibition", "value": "13.9%"}
{"Substance": "YFCHQYL", "test system": "peptide, human polyclonal IgM RF WEAK", "conditions": "concentration not given, 5 µg/mL mAb II-481 coated, added: RF at 50% max binding concentration", "measurement": "inhibition", "value": "0%"}
{"Substance": "Cc1ccc(NC(=O)c2ccc(CN3CCN(C)CC3)cc2)cc1Nc1nccc(-c2cncc(-c3oncc3C)c2)n1", "test system": "mild-to-moderate Parkinson's disease patients", "conditions": "oral, 50 mg once daily, day 7, practically defined OFF state", "scale": "direction not given", "measurement": "MDS-UPDRS part II score", "value": "8.7 ± 6.9"}
{"Substance": "Clc1ccc(-c2cc3ccccc3[nH]2)cc1Cl", "tested on": "RAW264.7", "test": "NO release, inhibitor, Griess", "conditions": "50 µM, 20 h, LPS-stimulated", "measurement": "inhibition", "value": "55.8%"}
{"Substance": "COCc1ccc(C=O)[nH]1", "tested on": "quinone reductase", "test": "inducer", "test system": "Hepa-1c1c7", "conditions": "48 h", "measurement": "concentration doubling activity", "value": "> 100 µM"}
{"Substance": "CC(C)C[C@H](NC(=O)[C@H](CO)NC(=O)[C@H](CCCNC(=N)N)NC(=O)[C@H](CC(=O)O)NC(=O)[C@H](CCC(=O)O)NC(=O)[C@H](C)NC(=O)[C@@H]1CCCN1C(=O)[C@H](C)NC(=O)[C@H](CCC(=O)O)NC(=O)[C@@H]1CCCN1C(=O)[C@@H]1CCCN1)C(N)=O", "test": "HPLC-EC", "test system": "F344 rat, normal, substantia nigra", "conditions": "intranasal, 1000 µg, 5 days/week for 3 weeks", "measurement": "DOPAC level", "value": "124 ± 27 ng/g"}
{"Substance": "SGVPDRF", "test system": "peptide, human polyclonal IgM RF WEAK", "conditions": "concentration not given, 5 µg/mL mAb II-481 coated, added: RF at 50% max binding concentration", "measurement": "inhibition", "value": "72%"}
{"Substance": "NC(=O)Cn1cc(COc2ccccc2-c2nc(-c3ccccc3)no2)nn1", "tested on": "Caco-2", "test": "qPCR, refers to: mTOR", "conditions": "IC50, 24 h", "scale": "reference: untreated cancer cells", "measurement": "mRNA level", "value": "0.35 ± 0.005 fold"}
{"Substance": "COc1cc(OC)cc(-c2cc3ccccc3[nH]2)c1", "tested on": "RAW264.7", "test": "sulforhodamine B", "conditions": "50 µM, 20 h", "scale": "reference: vehicle", "measurement": "viability", "value": "110 ± 2.4%"}
{"Substance": "Polymyxin B", "test system": "human whole blood", "conditions": "50 ng/mL, 4 h, 37 °C, added: E. coli LPS 0.5 ng/mL", "scale": "reference: LPS without compound", "measurement": "IL-6 release", "value": "40 ± 18.6%"}
{"Substance": "O=Cc1c(-c2ccccc2)[nH]c2ccccc12", "tested on": "RAW264.7", "test": "NO release, inhibitor, Griess", "conditions": "50 µM, 20 h, LPS-stimulated", "measurement": "inhibition", "value": "30.6%"}
{"Substance": "TDADHVFLRF-NH2 (C-amide)", "tested on": "Drosophila melanogaster", "test": "gut contraction", "test system": "wandering third instar larval gut", "conditions": "injection, 1 µM, within 10 min", "scale": "reference: DMS effect", "measurement": "inhibition", "value": "26%"}
{"Substance": "Nc1cccc(-c2cc3ccccc3[nH]2)c1", "tested on": "RAW264.7", "test": "sulforhodamine B", "conditions": "50 µM, 20 h", "scale": "reference: vehicle", "measurement": "viability", "value": "112 ± 6%"}
{"Substance": "CO/N=C1\\C[C@]2(C[C@@H]3C[C@@H](C/C=C(\\C)C[C@@H](C)/C=C/C=C4\\CO[C@@H]5[C@H](O)C(C)=C[C@@H](C(=O)O3)[C@]45O)O2)O[C@H](/C(C)=C/C(C)C)[C@H]1C", "tested on": "Haemonchus contortus", "test system": "multidrug resistant, sheep", "conditions": "oral, 0.2 mg/kg, day 10 post-treatment, added: closantel 10 mg/kg", "measurement": "faecal egg count reduction", "value": "87%"}
{"note": "Some of these lines once more:"}
{"Substance": "YFCHQYL", "test system": "peptide, human polyclonal IgM RF WEAK", "conditions": "concentration not given, 5 µg/mL mAb II-481 coated, added: RF at 50% max binding concentration", "measurement": "inhibition", "value": "0%"}
{"Substance": "Cc1ccc(NC(=O)c2ccc(CN3CCN(C)CC3)cc2)cc1Nc1nccc(-c2cncc(-c3oncc3C)c2)n1", "test system": "mild-to-moderate Parkinson's disease patients", "conditions": "oral, 50 mg once daily, day 7, practically defined OFF state", "scale": "direction not given", "measurement": "MDS-UPDRS part II score", "value": "8.7 ± 6.9"}
{"Substance": "Clc1ccc(-c2cc3ccccc3[nH]2)cc1Cl", "tested on": "RAW264.7", "test": "NO release, inhibitor, Griess", "conditions": "50 µM, 20 h, LPS-stimulated", "measurement": "inhibition", "value": "55.8%"}
